Measurements of several laboratories.
Each line is one published result; not all experiments were run side by side.

SMILES | assay | system | setting | quantity | value
Cc1c(Cl)c(C)[n+]([O-])c(Cl)c1-c1noc(-c2cc(O)c(O)c([N+](=O)[O-])c2)n1 | refers to: Mild severity | healthy Chinese subjects | oral, 25 mg | adverse event incidence | 13.3%
Cc1c(C(=O)O)ccc2c3n(nc12)[C@@H]1[C@H](C3)N(CC2CC2)[C@@]2(C(=O)Nc3cc(Cl)ccc32)[C@H]1c1cccc(Cl)c1F | phase Ia trial, refers to: Dizziness | cancer patients | oral, dose not given, all patients grade ≥3 | adverse event incidence | 0%
CC(=O)O[C@H]1C(=O)[C@@]2(C)[C@H]([C@H](OC(=O)c3ccccc3)[C@]3(O)C[C@H](OC(=O)[C@H](O)[C@@H](NC(=O)c4ccccc4)c4ccccc4)C(C)=C1C3(C)C)[C@]1(OC(C)=O)CO[C@@H]1C[C@@H]2O | refers to: peripheral oedema | patients with advanced solid tumours | intravenous, dose not given, phase Ib, related to compound | adverse events, all grades | 11%
CNC(=O)c1ccc(-c2cnc3ncc(Cc4ccc5ncccc5c4)n3n2)cc1F | phase 1 clinical trial, refers to: blood alkaline phosphatase increased | gastric cancer expansion cohort | oral, 600 mg twice daily, grade 3 or 4 | adverse event incidence | 0%
Cc1cc(Nc2ccc(S(F)(F)(F)(F)F)cc2)n2nc(C(C)(F)F)nc2n1 | – | Plasmodium vivax malaria patients | oral, 800 mg | adverse event Stomatitis | 0%
FC(F)(F)c1ccc(CNc2ccc(Cc3c[nH]c4ncc(Cl)cc34)cn2)cn1 | refers to: Hypophosphataemia | patients with advanced solid tumours | oral, dose not given, grade 1 and 2, possibly related to drug | adverse event incidence | 6%
O=C1CCc2ccc(OCCCCN3CCN(c4cccc(Cl)c4Cl)CC3)cc2N1 | refers to: Sedation | genotyped patients, CYP2D6 ultrarapid metabolizers | dose not given, long-acting oral or depot | adverse event incidence | 20%
CC[C@H](C)CCCCC(=O)N[C@@H](CCN)C(=O)N[C@H](C(=O)N[C@@H](CCN)C(=O)N[C@H]1CCNC(=O)[C@H]([C@@H](C)O)NC(=O)[C@H](CCN)NC(=O)[C@H](CCN)NC(=O)[C@H](CC(C)C)NC(=O)[C@@H](Cc2ccccc2)NC(=O)[C@H](CCN)NC1=O)[C@@H](C)O | refers to: oral hypoaesthesia | normal renal function subjects | IV, 0.75 mg/kg | adverse event incidence | 50%

A few entries again:
SMILES | assay | system | setting | quantity | value
Cc1c(C(=O)O)ccc2c3n(nc12)[C@@H]1[C@H](C3)N(CC2CC2)[C@@]2(C(=O)Nc3cc(Cl)ccc32)[C@H]1c1cccc(Cl)c1F | phase Ia trial, refers to: Dizziness | cancer patients | oral, dose not given, all patients grade ≥3 | adverse event incidence | 0%
